Measured values of several laboratories.
Parts stem from different laboratories: compare values within a part only. ± marks the error that the study gave.
Chain of UniProt Q9UEE5 (whole entry, looked up): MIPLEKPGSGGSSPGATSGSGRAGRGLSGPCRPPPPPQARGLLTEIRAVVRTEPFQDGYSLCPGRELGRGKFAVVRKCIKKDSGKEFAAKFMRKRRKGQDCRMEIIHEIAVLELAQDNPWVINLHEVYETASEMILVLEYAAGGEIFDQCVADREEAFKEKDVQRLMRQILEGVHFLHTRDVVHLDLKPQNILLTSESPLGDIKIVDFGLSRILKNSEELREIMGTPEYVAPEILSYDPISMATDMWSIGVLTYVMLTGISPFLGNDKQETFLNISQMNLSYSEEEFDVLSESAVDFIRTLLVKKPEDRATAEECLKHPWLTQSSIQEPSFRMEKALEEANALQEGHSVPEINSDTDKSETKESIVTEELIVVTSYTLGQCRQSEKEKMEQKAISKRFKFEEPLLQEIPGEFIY
Chain of UniProt Q8IVW4 (whole entry, looked up): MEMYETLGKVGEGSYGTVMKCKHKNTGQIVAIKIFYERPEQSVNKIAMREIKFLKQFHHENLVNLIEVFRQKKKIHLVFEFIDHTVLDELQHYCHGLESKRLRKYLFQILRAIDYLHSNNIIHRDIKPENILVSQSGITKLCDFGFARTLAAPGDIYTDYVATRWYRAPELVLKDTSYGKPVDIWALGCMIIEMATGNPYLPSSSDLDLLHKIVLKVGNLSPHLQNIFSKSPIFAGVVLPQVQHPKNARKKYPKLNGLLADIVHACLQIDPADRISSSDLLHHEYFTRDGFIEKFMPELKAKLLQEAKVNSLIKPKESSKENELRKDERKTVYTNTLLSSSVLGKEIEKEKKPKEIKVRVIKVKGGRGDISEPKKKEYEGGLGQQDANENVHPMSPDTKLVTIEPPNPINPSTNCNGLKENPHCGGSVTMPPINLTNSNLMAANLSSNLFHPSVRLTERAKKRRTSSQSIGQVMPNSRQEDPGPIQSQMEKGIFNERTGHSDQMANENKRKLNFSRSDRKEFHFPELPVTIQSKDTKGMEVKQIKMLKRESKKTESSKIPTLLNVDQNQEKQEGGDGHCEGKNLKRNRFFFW
Chain of UniProt Q5S007 (whole entry, looked up): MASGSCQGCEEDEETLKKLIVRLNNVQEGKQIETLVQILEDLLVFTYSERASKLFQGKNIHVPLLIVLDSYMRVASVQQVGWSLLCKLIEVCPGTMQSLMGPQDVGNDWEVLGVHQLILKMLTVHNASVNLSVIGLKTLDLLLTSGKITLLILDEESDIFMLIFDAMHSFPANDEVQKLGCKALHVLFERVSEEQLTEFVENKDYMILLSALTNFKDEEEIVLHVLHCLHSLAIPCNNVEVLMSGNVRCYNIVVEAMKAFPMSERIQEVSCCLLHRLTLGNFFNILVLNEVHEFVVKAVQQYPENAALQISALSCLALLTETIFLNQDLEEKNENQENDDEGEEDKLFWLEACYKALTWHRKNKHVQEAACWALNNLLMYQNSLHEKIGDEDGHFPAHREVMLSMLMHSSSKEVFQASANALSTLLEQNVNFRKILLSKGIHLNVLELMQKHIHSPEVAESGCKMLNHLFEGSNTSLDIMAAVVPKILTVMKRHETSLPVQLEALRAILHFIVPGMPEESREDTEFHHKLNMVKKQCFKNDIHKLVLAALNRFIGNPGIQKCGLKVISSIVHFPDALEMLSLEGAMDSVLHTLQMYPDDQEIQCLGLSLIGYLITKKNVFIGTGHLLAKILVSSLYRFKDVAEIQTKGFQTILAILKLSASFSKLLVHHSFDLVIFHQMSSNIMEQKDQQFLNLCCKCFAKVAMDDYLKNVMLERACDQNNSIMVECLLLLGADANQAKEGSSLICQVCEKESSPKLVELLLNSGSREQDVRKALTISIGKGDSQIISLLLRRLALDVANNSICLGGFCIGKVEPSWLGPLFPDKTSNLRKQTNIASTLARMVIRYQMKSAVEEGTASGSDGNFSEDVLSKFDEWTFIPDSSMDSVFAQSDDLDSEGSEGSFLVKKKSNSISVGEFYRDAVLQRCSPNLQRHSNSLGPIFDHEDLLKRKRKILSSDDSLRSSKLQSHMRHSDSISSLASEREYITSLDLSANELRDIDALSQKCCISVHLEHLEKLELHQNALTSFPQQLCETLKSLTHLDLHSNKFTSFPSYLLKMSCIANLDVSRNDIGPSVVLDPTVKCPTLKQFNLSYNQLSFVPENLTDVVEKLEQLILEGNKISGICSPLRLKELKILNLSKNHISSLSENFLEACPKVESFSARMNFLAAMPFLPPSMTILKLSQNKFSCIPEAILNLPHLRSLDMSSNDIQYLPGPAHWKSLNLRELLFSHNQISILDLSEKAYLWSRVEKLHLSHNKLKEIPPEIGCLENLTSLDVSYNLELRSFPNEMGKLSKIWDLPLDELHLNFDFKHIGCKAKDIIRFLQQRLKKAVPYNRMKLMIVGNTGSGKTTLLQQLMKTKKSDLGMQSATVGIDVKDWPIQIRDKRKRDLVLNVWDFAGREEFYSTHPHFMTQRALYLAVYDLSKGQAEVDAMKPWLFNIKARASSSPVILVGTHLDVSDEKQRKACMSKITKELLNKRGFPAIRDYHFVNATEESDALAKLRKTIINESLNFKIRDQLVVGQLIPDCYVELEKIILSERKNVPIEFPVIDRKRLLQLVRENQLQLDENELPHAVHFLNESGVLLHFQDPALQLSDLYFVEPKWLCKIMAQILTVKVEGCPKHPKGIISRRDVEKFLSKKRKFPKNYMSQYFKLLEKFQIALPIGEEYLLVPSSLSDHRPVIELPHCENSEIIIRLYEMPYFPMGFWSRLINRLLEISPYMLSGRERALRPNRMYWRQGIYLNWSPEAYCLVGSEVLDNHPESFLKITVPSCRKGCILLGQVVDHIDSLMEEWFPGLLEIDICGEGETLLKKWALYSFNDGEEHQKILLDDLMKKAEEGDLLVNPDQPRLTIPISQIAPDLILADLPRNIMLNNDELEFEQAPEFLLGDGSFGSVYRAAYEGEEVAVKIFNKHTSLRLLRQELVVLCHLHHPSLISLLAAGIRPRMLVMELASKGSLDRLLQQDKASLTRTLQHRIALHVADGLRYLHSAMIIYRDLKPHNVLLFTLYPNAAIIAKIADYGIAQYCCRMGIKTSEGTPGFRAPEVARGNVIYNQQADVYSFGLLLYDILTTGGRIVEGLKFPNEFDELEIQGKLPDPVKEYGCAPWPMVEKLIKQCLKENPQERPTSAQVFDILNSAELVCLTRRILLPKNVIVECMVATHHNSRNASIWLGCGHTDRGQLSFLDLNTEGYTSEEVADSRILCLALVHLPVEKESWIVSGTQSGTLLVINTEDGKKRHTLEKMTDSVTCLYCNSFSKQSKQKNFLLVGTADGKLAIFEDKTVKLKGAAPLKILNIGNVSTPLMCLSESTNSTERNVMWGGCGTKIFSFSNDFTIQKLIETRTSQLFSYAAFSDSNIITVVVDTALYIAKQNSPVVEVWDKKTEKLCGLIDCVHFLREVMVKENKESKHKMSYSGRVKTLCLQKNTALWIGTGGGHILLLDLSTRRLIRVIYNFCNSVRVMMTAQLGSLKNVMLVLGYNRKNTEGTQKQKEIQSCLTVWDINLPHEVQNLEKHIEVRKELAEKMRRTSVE
Chain of UniProt P32298 (whole entry, looked up): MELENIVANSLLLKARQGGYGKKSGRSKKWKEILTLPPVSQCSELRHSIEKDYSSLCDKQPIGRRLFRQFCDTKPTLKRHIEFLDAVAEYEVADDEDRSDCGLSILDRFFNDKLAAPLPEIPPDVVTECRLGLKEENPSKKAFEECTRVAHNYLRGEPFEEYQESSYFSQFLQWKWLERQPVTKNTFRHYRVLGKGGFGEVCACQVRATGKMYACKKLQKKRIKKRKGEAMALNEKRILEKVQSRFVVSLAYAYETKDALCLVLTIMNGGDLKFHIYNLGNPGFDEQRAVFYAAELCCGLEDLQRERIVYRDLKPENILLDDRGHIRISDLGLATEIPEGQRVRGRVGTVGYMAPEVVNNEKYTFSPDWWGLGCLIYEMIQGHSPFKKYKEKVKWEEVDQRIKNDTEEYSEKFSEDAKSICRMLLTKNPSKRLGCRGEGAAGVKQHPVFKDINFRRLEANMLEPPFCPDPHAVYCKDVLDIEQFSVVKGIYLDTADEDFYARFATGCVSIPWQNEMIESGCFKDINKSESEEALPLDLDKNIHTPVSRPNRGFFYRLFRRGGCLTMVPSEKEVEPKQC
Chain of UniProt P31751 (whole entry, looked up): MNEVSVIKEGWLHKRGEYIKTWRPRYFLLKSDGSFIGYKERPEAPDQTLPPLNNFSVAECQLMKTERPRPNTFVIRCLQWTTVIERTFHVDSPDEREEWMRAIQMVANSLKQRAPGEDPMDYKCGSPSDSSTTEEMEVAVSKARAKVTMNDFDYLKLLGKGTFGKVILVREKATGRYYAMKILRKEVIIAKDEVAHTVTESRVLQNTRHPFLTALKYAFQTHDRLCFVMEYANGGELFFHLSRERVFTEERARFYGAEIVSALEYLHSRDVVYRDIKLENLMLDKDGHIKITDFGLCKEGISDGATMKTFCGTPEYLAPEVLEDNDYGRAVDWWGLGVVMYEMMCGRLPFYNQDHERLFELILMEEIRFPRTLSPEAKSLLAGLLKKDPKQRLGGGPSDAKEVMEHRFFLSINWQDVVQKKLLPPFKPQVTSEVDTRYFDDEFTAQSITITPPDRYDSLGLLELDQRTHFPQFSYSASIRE

Set 1 — read-out: enzyme activity; mode: inhibitor; concentration: 0.5 µM; baseline: control; measurement: remaining activity
SMILES: CSc1nc(-c2ccnc(N[C@@H](C)c3ccccc3)c2)c(-c2ccc(F)cc2)[nH]1 (racemic)
Cyclin-dependent kinase 1, with cyclin A (CDK1, Homo sapiens, UniProt P06493): 78%
GRK4 (Homo sapiens, UniProt P32298): 90.6%
DDR2 (Homo sapiens, UniProt Q16832): 89.8%
MAPK11 (Homo sapiens, UniProt Q15759): 41.6%
MARK2 (Homo sapiens, UniProt Q7KZI7): 90.7%
AKT2 (Homo sapiens, UniProt P31751): 96.8%
NEK3 (Homo sapiens, UniProt P51956): 94.7%
TLK2 (Homo sapiens, UniProt Q86UE8): 106%
PAK3 (Homo sapiens, UniProt O75914): 94.5%
TXK (Homo sapiens, UniProt P42681): 93.1%

Set 2 — mode: agonist; measurement: EC50
Target: Beta-1 adrenergic receptor (ADRB1, Homo sapiens, UniProt P08588)
Chain of UniProt P08588 (whole entry, looked up): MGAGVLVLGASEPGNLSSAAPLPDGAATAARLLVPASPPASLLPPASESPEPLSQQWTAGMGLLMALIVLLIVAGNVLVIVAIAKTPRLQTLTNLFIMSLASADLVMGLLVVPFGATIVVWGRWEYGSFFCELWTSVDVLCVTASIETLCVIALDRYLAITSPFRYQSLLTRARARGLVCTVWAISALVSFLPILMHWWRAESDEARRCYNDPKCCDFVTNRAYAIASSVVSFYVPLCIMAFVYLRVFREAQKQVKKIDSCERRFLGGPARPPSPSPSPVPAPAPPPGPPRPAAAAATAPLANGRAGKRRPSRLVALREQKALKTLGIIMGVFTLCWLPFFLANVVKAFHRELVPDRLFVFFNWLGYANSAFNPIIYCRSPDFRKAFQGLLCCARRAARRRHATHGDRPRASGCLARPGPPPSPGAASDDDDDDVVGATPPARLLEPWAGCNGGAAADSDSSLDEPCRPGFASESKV
O=C(Cc1ccccc1)Nc1ccc([C@@H](O)[C@H]2COCC(=O)N2Cc2ccccc2)cc1: ≥ 100 µM
Cc1noc2c(NC3CCOCC3)cc(-c3ccccn3)nc12: ≥ 100 µM
Cc1ccsc1-c1n[nH]c2ncc(-c3ccc(F)cc3)nc12: ≥ 100 µM
CC#CCn1cc2c3c(cccc31)[C@H](CC(C)C)N[C@H](C(=O)NCCC)C2: 2.7 µM
Cc1cc(F)ccc1-c1n[nH]c2ncc(-c3cnn(C)c3)nc12: ≥ 100 µM
Clc1cccc(Nc2cnc3ccc(N4CCOCC4)nn23)c1: ≥ 100 µM
O=C(Nc1ccc([C@@H](O)[C@H]2COCC(=O)N2Cc2ncc[nH]2)cc1)C1CC1: ≥ 100 µM
O=C(Nc1ccccc1OC(F)(F)F)c1sc2cc(F)ccc2c1Cl: ≥ 100 µM
CC1(C)CC(=O)c2cc(C(=O)Nc3ccccc3)c(O)nc2C1: ≥ 100 µM
COc1cc(CN[C@H]2CC[C@H](O)CC2)ccc1OCC(O)CN1CCSCC1 (stereo partly drawn): ≥ 100 µM

Set 3 — concentration: 1 µM; measurement: remaining binding
Compound: NS(=O)(=O)c1cc(NC(=O)Cc2ccccc2)ccc1Oc1cccc(Cl)c1
CDKL3 (Homo sapiens, UniProt Q8IVW4); cell-free assay, competition with immobilised ligand: 95%
Tyrosine-protein kinase ABL1, phosphorylated (ABL1, Homo sapiens, UniProt P00519, H396P); cell-free assay, competition with immobilised ligand: 73%
PLK4 (Homo sapiens, UniProt O00444); cell-free assay, competition with immobilised ligand: 92%
EIF2AK1 (Homo sapiens, UniProt Q9BQI3); cell-free assay, competition with immobilised ligand: 83%
Tyrosine-protein kinase ABL1, non-phosphorylated (ABL1, Homo sapiens, UniProt P00519, F317I); binding, competition with immobilised ligand: 51%
CAMK2G (Homo sapiens, UniProt Q13555); cell-free assay, competition with immobilised ligand: 86%
CAMK1D (Homo sapiens, UniProt Q8IU85); cell-free assay, competition with immobilised ligand: 100%
FRK (Homo sapiens, UniProt P42685); cell-free assay, competition with immobilised ligand: 98%
PIK3CA (Homo sapiens, UniProt P42336, M1043I); cell-free assay, competition with immobilised ligand: 93%
CDC42BPG (Homo sapiens, UniProt Q6DT37); competition binding: 100%
LRRK2 (Homo sapiens, UniProt Q5S007); cell-free assay, competition with immobilised ligand: 72%
STK17A (Homo sapiens, UniProt Q9UEE5); cell-free assay, competition with immobilised ligand: 94%
PRKCE (Homo sapiens, UniProt Q02156); cell-free assay, competition with immobilised ligand: 87%
MARK1 (Homo sapiens, UniProt Q9P0L2); cell-free assay, competition with immobilised ligand: 100%

Set 4 — read-out: kinase activity; measurement: remaining activity
SMILES: COc1cc(C(=O)N2CCC(N3CCN(C)CC3)CC2)ccc1Nc1ncc2c(n1)N(C)c1ccccc1C(=O)N2C
DYRK3; 10 µM: 96 ± 1%
CSK; 1 µM: 70%
YES1; 1 µM: 86 ± 8%
MINK1; 10 µM: 108 ± 7%
MARK2; 10 µM: 72 ± 9%

For quick reference, copied from above (set 2):
O=C(Cc1ccccc1)Nc1ccc([C@@H](O)[C@H]2COCC(=O)N2Cc2ccccc2)cc1: ≥ 100 µM
Cc1noc2c(NC3CCOCC3)cc(-c3ccccn3)nc12: ≥ 100 µM
Cc1ccsc1-c1n[nH]c2ncc(-c3ccc(F)cc3)nc12: ≥ 100 µM
CC#CCn1cc2c3c(cccc31)[C@H](CC(C)C)N[C@H](C(=O)NCCC)C2: 2.7 µM
